Results pooled from the literature.
A part holds a random share of what one study measured.

Series 1 — read-out: enzyme activity; action: inhibitor; concentration: 20 µM
Target: Replicase polyprotein 1ab, polymerase (rep, Severe acute respiratory syndrome coronavirus 2, UniProt P0DTD1)
Structure (SMILES) | inhibition [%]
CCC1(c2ccccc2)C(=O)NCNC1=O | 11.7
COc1cc(Oc2ccnc3cc(OC)c(OC)cc23)ccc1NC(=O)NC(C)c1nccs1 (stereo not shown) | 5.15
CC(=O)OCC1=C(C(=O)O)N2C(=O)[C@@H](NC(=O)Cc3cccs3)[C@H]2SC1 | 22.6
CCN(CC)CCNC(=O)c1c(C)[nH]c(/C=C2\C(=O)Nc3ccc(F)cc32)c1C | 6.23
Nc1ccc(O)c(C(=O)O)c1 | 2.2
CNC(=O)c1ccc(Nc2ncc(C(F)(F)F)c(NCc3nccnc3N(C)S(C)(=O)=O)n2)cc1 | -1.75
Cn1cc(C2=C(c3ccc(Cl)cc3Cl)C(=O)NC2=O)c2ccccc21 | -14.5
CCn1c(=O)c2c(nc(/C=C/c3ccc(OC)c(OC)c3)n2C)n(CC)c1=O | 2.08
CCS(=O)(=O)c1cccc(-c2cc(C(=O)NC3CCN(C)CC3)c(C)c3[nH]c4ncc(C)cc4c23)c1 | 5.94
CCOc1ccc(Cc2nccc3cc(OCC)c(OCC)cc23)cc1OCC | 3.63
CCc1cc(/C(C)=N/OCc2ccc(C3CCCCC3)c(C(F)(F)F)c2)ccc1CN1CC(C(=O)O)C1 | -7.47
CC[C@]12CCCN3CCc4c(n(c5ccccc45)C(=O)C1)[C@@H]32 | 2.61
CCOC(=O)NNc1ccc(N(CC)CC(C)O)nn1 (stereo not shown) | -6.63
CCN(CC)C(=O)c1ccc(O)c(OC)c1 | 2.19
Nc1nc(Cl)nc2c1ncn2[C@@H]1O[C@H](CO)[C@@H](O)[C@@H]1F | 25
Cc1ccc2c(c1)c1c3n2CCNC3CCC1 (stereo not shown) | -14.4
N[C@@H](CSS(=O)(=O)O)C(=O)O | 6.8
O=C(CC12CC3CC(CC(C3)C1)C2)Nc1cccc2nc(NCCNCCO)ccc12 | -3.34
O=C(NC(NC(=S)Nc1ccc(F)c([N+](=O)[O-])c1)C(Cl)(Cl)Cl)C(c1ccccc1)c1ccccc1 (stereo not shown) | 5.7
CC(=O)c1cc2c(o1)C(=O)c1ccccc1C2=O | 5.5
Cc1cccc(C(=O)O)c1O | 2.32
O=C(O)CCC(=O)O | 1.58
O=C(CCCCCCC(=O)Nc1cccnc1)NO | -4.21
CC1CCN(CCCC(=O)c2ccc(F)cc2)CC1 | 0.52
CSc1ccc(OCc2ncc([N+](=O)[O-])n2C)cc1 | -3.13

Series 2 — method: protein-binding microarray; molecule type: double-stranded DNA, one strand shown; medium: in vitro; concentration: 250 nM; notes: 60-bp whole probe; together with: salmon DNA 0.4 mg/ml; relative to: random background probes; reading: higher = stronger binding; all sequences stand within: GCCTAGCACT … GTCTTGATTCGCTTGACGCTGCTG
Target: Interferon regulatory factor 7, full length, phosphomimetic (IRF7, Homo sapiens, UniProt Q92985, residues 1-503, S101K/S471D/S472D/S475D/S476D/S477D/S483D/S484D/S487D)
UniProt Q92985, sequence (whole entry, unmodified, looked up): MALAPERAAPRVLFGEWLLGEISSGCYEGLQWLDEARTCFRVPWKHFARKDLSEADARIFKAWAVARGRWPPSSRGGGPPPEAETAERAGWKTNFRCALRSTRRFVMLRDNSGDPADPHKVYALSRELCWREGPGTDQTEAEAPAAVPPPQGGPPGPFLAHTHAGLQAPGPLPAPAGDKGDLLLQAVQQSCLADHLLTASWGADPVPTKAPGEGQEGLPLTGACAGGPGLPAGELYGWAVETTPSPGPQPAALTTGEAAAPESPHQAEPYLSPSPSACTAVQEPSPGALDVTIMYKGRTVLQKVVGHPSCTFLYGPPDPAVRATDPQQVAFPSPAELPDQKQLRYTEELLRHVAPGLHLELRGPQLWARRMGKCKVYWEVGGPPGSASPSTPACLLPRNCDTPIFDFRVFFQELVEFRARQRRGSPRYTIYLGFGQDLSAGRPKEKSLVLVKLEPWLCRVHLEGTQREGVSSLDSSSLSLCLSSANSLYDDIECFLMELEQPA
Sequence | log fluorescence
TAGTTCTCCTTCTCCTTTAGTGCTAG | 1.39 z-score
TAGGACTGGGACTTGGTTAGTGCTAG | -0.00758 z-score
AGGTTTTCTGGTTCCCATTGTGCTAG | 1.67 z-score
TAGGACTGCACTTTCGGTTAGTGCTA | 1.46 z-score
TAGATCTCAGTATCGATTCGTGCTAG | 2.73 z-score
CATTATTTACTCTCTAACTGTGCTAG | 1.17 z-score
AATGCTTCTGTATTCATGAGTGCTAG | -0.424 z-score
TAAATATCAGACTGGATTAGTGCTAG | -0.0972 z-score

Series 3 — organism: SARS-CoV-2; read-out: cytopathic effect; cells: Vero E6; concentration: 10 µM
SMILES | inhibition [%]
COc1ccc2[n-]c([S@@+]([O-])Cc3ncc(C)c(OC)c3C)nc2c1.COc1ccc2[n-]c([S@@+]([O-])Cc3ncc(C)c(OC)c3C)nc2c1.O.O.O.[Mg+2] | -3.3
CCCCCCNC(=O)n1cc(F)c(=O)[nH]c1=O | -2.6
CC[C@]12C=CCN3CC[C@@]4(c5cc([C@@]6(C(=O)OC)C[C@@H]7C[C@@H](C(C)(F)F)C[N@](CCc8c6[nH]c6ccccc86)C7)c(OC)cc5N(C)[C@H]4[C@@](O)(C(=O)OC)[C@@H]1OC(C)=O)[C@@H]32 | 0.6

Series 4 — method: universal PBM; molecule type: double-stranded DNA, one strand shown; medium: in vitro; concentration: 600 nM; reading: higher = stronger binding
Target: Sal-like protein 4, full length isoform A (SALL4, Homo sapiens, UniProt Q9UJQ4, residues 1-1053)
UniProt Q9UJQ4, sequence (whole entry, looked up): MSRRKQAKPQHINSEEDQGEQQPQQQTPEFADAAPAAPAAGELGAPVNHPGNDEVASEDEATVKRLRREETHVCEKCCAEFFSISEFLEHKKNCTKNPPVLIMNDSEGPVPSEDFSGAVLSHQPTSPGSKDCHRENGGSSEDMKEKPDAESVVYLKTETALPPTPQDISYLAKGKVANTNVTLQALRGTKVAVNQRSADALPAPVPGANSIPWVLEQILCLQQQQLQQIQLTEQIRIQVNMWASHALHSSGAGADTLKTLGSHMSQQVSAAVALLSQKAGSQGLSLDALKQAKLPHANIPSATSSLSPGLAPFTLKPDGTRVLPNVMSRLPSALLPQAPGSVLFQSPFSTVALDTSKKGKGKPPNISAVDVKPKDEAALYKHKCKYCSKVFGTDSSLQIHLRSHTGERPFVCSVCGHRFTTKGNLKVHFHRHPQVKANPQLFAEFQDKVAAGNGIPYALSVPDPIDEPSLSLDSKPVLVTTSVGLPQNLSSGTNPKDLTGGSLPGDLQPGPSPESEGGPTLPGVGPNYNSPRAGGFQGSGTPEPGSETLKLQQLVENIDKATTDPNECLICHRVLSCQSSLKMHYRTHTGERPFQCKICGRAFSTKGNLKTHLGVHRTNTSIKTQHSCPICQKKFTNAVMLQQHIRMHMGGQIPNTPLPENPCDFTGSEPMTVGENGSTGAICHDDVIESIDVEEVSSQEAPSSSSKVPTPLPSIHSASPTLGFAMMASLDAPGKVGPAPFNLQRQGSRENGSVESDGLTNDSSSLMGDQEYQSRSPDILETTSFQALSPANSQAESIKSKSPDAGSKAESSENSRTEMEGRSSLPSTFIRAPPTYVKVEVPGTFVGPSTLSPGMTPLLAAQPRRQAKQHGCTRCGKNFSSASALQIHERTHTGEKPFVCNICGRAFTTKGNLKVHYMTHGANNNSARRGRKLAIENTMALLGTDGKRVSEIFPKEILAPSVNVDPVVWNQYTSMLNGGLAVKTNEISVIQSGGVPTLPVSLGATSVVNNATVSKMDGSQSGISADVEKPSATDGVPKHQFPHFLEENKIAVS
Notes: 8-mer, flanks averaged, mean of replicates
Sequence | E-score
AGACGAGC | -0.157
CAACCCTC | -0.242
CAAGTCCC | -0.226
GCAATGGA | 0.0789
ACAGCTGA | -0.143
AGACTACA | -0.0229
AGCGTTAT | 0.0968
CCAAAGCG | -0.233

Series 5 — cell line: HEK-293T; read-out: pseudovirus infection; method: FDA-approved drug library screen; organism: VSV pseudotyped with SARS-CoV-2 spike; concentration: 10 µM; time: 16 h; relative to: vehicle-treated
SMILES | GFP-positive cells [%]
CN1C2CCCC1CC(NC(=O)c1nn(C)c3ccccc13)C2 (stereo not shown) | 90
C[N+](C)(C)CC(=O)O | 105
C[C@H](CCC(=O)O)[C@H]1CC[C@H]2[C@@H]3[C@H](O)C[C@@H]4C[C@H](O)CC[C@]4(C)[C@H]3C[C@H](O)[C@]12C | 80.6

Series 6 — method: protein binding microarray; molecule type: double-stranded DNA, one strand shown; medium: in vitro; concentration: not given; relative to: not given; reading: higher = stronger binding
Target: Histone acetyltransferase KAT6A, winged helix 1, GST fusion (KAT6A, Homo sapiens, UniProt Q92794, residues 1-85)
Notes: 8-mer, flanks averaged, mean of 2 arrays, mostly near background
Construct (chain): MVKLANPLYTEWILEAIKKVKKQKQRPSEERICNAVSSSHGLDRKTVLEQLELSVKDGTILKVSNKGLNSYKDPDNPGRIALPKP
Sequence | E-score
AGCCCTTC | -0.0742
AGTACCTC | -0.113
AATTTTGA | -0.128
GCGTGGCA | 0.0672
CAGTCTTA | 0.00111
ACATCTGG | -0.139
CTCCGGAC | 0.0504
CTTCAAAC | -0.0926

For quick reference, copied from above (series 2):
Sequence | log fluorescence
TAGTTCTCCTTCTCCTTTAGTGCTAG | 1.39 z-score
AGGTTTTCTGGTTCCCATTGTGCTAG | 1.67 z-score
CATTATTTACTCTCTAACTGTGCTAG | 1.17 z-score
AATGCTTCTGTATTCATGAGTGCTAG | -0.424 z-score
TAGATCTCAGTATCGATTCGTGCTAG | 2.73 z-score
